Experimental data pooled from the literature.
Each numbered part is a random draw from the data of one study; scales do not carry over between parts.

Study 1
Target: Centromere-binding protein 1, full length, N-terminal tag (CBF1, Saccharomyces cerevisiae, UniProt P17106, residues 1-351)
Chain of UniProt P17106 (whole entry, looked up): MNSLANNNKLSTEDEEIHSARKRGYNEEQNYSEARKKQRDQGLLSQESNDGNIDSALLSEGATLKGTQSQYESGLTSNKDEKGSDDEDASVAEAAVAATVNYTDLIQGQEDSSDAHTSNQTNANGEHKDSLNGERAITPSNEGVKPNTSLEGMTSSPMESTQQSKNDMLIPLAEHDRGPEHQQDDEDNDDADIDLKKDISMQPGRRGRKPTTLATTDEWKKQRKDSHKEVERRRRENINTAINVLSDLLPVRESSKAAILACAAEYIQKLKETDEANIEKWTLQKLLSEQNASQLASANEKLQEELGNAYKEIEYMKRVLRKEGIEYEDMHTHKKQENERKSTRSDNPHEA
Technique: protein-binding microarray
Form: double-stranded DNA, one strand shown
Sample: in vitro
Tested at: 0.8 µM
Setting: whole 60-bp probe, no competitor
Reading: higher = stronger binding
Constant ends, left off below: … GTCTTGATTCGCTTGACGCTGCTG
| Sequence | fluorescence intensity [a.u.] |
| --- | --- |
| CTATACAAGTTCAATGGTGGTGCAAGGATTGAATTC | 536 |
| GAATTGATCAATCGTGACTAGTTCGCGTTTTGATAG | 791 |
| CTATTGAAAGAATCTCACCTGGAGAATGGGTGTTTC | 557 |
| GAACTTTACAATAGTCAGATCACGTTCTGTGGCTAG | 2510 |
| CTAATCGCTAGAAAATACGTGCGCGTTGCCAAATTC | 540 |
| GAATATCCATAGAATCATCACCGACCTGCGCAATAG | 536 |
| GAATAAAGCGACAGTTCCGTGACGGTTACTATTTAG | 520 |
| GAACCTACATAATTCAGCGTGATATGATGGAGTTAG | 632 |
| GAATACGAGATCGTACAGGAGATGGAAGAATATTAG | 495 |
| GAATTAATTAAGATCCATGTGAAGGTTCCAGAATAG | 631 |
| CTAATAATCAGCTCTGTCGTGACTGATAAATGCTTC | 1050 |
| CTAGTTTTATTTACTGTCACCTTGATGAGCGACTTC | 538 |
| CTAGAATATCCGGGTGATGGGCTGGATTGGCAATTC | 483 |
| CTATGGAGGGCAAATCACGATAGGAAGAGGCATTTC | 554 |
| GAAACGATGTTAGCGCACATGCTACATGACTTGTAG | 749 |
| CTACATCGCAATATGAAGATCACAGAAAAATTATTC | 552 |
| GAAACAATAGAAAGAAACGTGGAAATTATTTAATAG | 561 |

Study 2
Target: RING finger protein unkempt homolog, zinc fingers 1-6, SBP tag (UNK, Homo sapiens, UniProt Q9C0B0, residues 30-357)
Chain of UniProt Q9C0B0 (30-357, looked up): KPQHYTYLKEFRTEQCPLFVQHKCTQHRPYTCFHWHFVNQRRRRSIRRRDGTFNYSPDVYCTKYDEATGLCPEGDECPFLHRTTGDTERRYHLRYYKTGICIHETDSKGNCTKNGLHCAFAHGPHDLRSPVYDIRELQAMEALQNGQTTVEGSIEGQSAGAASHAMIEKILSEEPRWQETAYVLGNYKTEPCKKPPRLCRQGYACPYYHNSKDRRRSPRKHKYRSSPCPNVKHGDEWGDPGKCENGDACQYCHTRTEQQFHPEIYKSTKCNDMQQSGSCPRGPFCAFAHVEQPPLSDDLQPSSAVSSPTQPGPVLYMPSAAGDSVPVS
Technique: RNA Bind-n-Seq
Form: RNA
Sample: in vitro
Tested at: 100 nM
Setting: RNA with constant flanks, vertebrate orthologous sites, ends assumed
Relative to: input RNA pool
Reading: higher = stronger binding
Constant ends, left off below: GGGAGUUCUACAGUCCGACGAUC … CAACAGAGGAUUGAGCAUCA
| Sequence | bound/input enrichment |
| --- | --- |
| UGCAUUAUUUGACCAGAGUUGAGGUGACAGAAUUUGAAGACAUCAAAUCAGGUUACAGAAUAGAUUUUUAUUUUGAUGAGAAUCCAUACUUUGAAAAUAAAGUUCUCUCCAAAGAGUUUC | 0.677 ratio |
| ACUUUAGUUCUUAACAACCAACACUCCUAAAUGAGUUAGAAAAAAGUUUACAACAUAAUCUAGUUUACAAAGAAGUCUUGUGCUAGAAUACUUUUUACAAAGUAUUUUUGAAUACCAUUA | 0.624 ratio |
| GAAAGUCCCCAUUGUCACUGAGAACCACCAAAUCUGACUUUUACAUUUGGUCUCAGAAUUUAGGUUCCUGCCCUGUUGGGUUUUUUUUUUUUUUUAAACAGUUUUCAAAAGUUCUUAAAG | 1.44 ratio |
| UAUAAGAACUCUUACAGUCUUAGAUAUUAUAAAAAUAUAUAUCUGAAUUGUAAGAGUUGUUAGCACAAGGUUUUUUUUUUUUUUUUGGCACUUGUUUUGGGUACAAGGCAUUUCUGACAU | 0.412 ratio |
| AGGAAAUGCUGGCUGCAAACCCUCAGGAUCGUCCAGAUGCUUUUGAACUAGAACUCAGAUUAGUACAAAUUGCAUUUAAAGAUAGCAGCUGGGAAACGUGACACAUAUAUUGUUUGCAAA | 0.746 ratio |
| ACCUAAUUUCUAGGACUUAAGCCAACAAUUCUAAAAUAUUUGUUUGUGUAAGUCUGUACAUAGUAAUGCCAACCUCAUUGUUCCAAGGGUUUUUUCCCGUGUGUUUGGGGUUUUGUUUUG | 0.252 ratio |
| GUGACUUUGGACGUCCGUUCAUCCUCGGUGUAGGGAUUACUUAGUGCUGGGCCUUGCGCGUUUGGUUUUUUUCUUGACCGGAGGCCUCUGCAGCAACCAUGUUACGCCAGAUCGUGGGUC | 0.33 ratio |
| CCCAGGAUCCUUUGCCUGGCAGCGUGCAGCACUCUUUGCAGGGCUACCUGCCUGAGGACGACGACGUCUCCUACCAGCAGGAACCCUCGAGACACACACCUGUGCCCAGCAGUCCCGCUG | 0.252 ratio |
| AGCAACUCAAGGAUUCAGAACUGGGUUUACAAAUGUCCCAAGCAGAUAUGGAACAAACGCUCAUGGUCAACCCCGACCAUAAUAAACACCAUUAUUUAUUGUACUUAAGGGUAUUGACUU | 0.248 ratio |
| CUGUGUGUGGUGCAGCGUGCUCUGUACCAGUGCUCACCAUCCCUUCAUAUCAACUGUCCCUAGUUAUAGCAGUUUAAUAUUUUUAAAAGUUUUACAUUGCUGUAUAUUCAAAGAUUUGUU | 0.395 ratio |
| AGUAGUUUAAAGCUUGUUUGCACAGUUCUUUUUUUCCAUUGGAAAUGGAAUUCAUUGCCUUAGGUCUUUUUAAAUAGUGUAUUAUCGUUGGGGCUGGCUCUAUGCUUGAAAACCAGUUUA | 2.54 ratio |

Study 3
Target: Histone acetyltransferase KAT6A, winged helix 2, GST fusion (KAT6A, Homo sapiens, UniProt Q92794, residues 85-181)
Technique: protein binding microarray
Form: double-stranded DNA, one strand shown
Sample: in vitro
Tested at: not given
Setting: 8-mer, flanks averaged, mean of 2 arrays, mostly near background
Relative to: not given
Reading: higher = stronger binding
Construct (chain): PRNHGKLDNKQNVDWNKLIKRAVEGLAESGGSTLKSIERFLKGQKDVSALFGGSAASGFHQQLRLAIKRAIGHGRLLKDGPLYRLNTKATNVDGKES
| Sequence | E-score |
| --- | --- |
| GTTCGGGA | -0.0411 |
| CGCGTGAA | 0.0529 |
| AGCAATAA | -5e-05 |
| CATCTTTA | 0.0402 |
| ATCTTGAG | -0.128 |
| AGTGAGTA | 0.0972 |
| GATCGCAA | 0.175 |
| AAATTACG | -0.0529 |
| AGGGGCTC | 0.0254 |
| ATTACATC | 0.0252 |
| AGCGCCTG | 0.0213 |
| GGAATGGA | -0.0651 |
| CCCATCGC | 0.11 |
| AGACCGTA | -0.157 |
| ATGCGAAT | 0.00264 |
| ATTACTCC | -0.0455 |
| ACTATAGG | -0.167 |
| GGGGTAAC | -0.0849 |
| AACGGCAT | 0.0645 |
| ACTGTTCG | 0.134 |
| CGCTATCA | 0.175 |

Study 4
Target: RNA binding protein fox-1 homolog 2, RRM domain, GST-SBP tag (RBFOX2, Homo sapiens, UniProt O43251-10, residues 100-194)
Technique: RNA Bind-n-Seq
Form: RNA
Sample: in vitro
Tested at: 365 nM
Setting: natural RNA segment, single round, ends assumed
Relative to: no-protein control
Reading: higher = stronger binding
Constant ends, left off below: GGGAGUUCUACAGUCCGACGAUC … UGGAAUUCUCGGGUGCCAA
Target sequence (chain): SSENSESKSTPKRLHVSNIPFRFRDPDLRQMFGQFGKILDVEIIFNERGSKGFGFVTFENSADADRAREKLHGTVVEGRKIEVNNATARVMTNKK
| Sequence | RBNS enrichment (R) |
| --- | --- |
| GCCUUAUUCUUCAGCUAGUGGUUUAUAAAGAGGCUGCAUAGAAAGUUUUACACAUGGAAGCAGCUGAUGUAGAGACUUCAUAUAGGCAGCUGCAGUCCUAAAGUCUCAAG | 0.452 |
| GUAUAUUAUAUCUUAAGUCAGUUUCCGUGGCAUCUACUGAAUAAAAAUUCAGCAGAUCUCCUUUCUAGGUGCAACUGUUCAGUGAAUUCCCUCACUAAAAGCUUAAGCAA | 0.36 |
| UGAAGAUCUGCACACAGUAAGUGAUCCUCAGAAAUGUCCCUUCCAGCUCACAAACUCAGUUGGCCCGUGCUCCGUUCACCUGCGAAGGGCAGCCUAAUAUGAAGAUUGAU | 0.603 |
| CCAGGCUUCGUCUUAUUUCUACUGUUUUUGUCGCAACUUCCAUUGAUUUAUGUCCCUUCCCUCCCCCCUAAGUACAUCAGGGAACCUUUCCACACUAUAAAUGAUAUGAC | 2.06 |
| GGGAGACGCAGAAAUUGUGGUAAAAUUCCUUAAUGUUUAAGGGAAAGUAACUUUAAGAGAUUUUUGGAAAAGCUUUAUAUACAUUCUUUUCAAAUUUCAGUACAAAUGAA | 0.603 |
| UUCAAAGACAGCUAGCUGUCACUGGUGCUCCCCCCAAAGCGUUUCACCCCCUUCUGUGCAUCUUAGGAAUGAAAUGGUUGCUGUGUGCAGGUCAGGUUAAUGGAAGAACG | 5.72 |
| GGGGUAGCUCCUGCCUGCUCUCCCUGCGUUGCCUAGGGUAAAGCCUCCAGAUUUGCCAUACUGAGCCCCUCUUCCUAGCAUCAGGCGAUACAUCUGAGUUCAAAUGUCUU | 1.01 |
| UCGGCCGGUCAGGGCCCGCAGCCUCGCCCCAUCCACUCCGGUGCCUCCAUUUAGCUGGCCAAUCAGCCCAGGAGGGGCAGGUUCCCCGGGGCCGGCGCUAGGAUUUGCAC | 0.344 |
| CUGCCGUGUUUCUUACCCUCCCUUGAAGUUUCUCUAAGCUCAUCACAGCCUAGAGUUCAGGAAAGUUAAUCCACACAGAAGCACAAUUUUGUCCUCUUCCAGACACUGUU | 0.36 |
| GAUCCUCCUGCCUCAGCUUCCCAAGUAGCGGGGAUCACAGGCAUGAGCCGCCACACCCGGCCAUCACACCUGGAUUUUCAGUGGGAGGUUUUUGGUUUGGAGACAUCCAA | 0.386 |
| CUGCAUGACCUUGGGCAAACCCUUGCCCUUUCAAGCCAUCAGCUCCUGCCUCUCUGCCAUGAGGGCUUUGGAUCAGAUUCCUCUUCUCGCCAGGAUGAGGACACGCACUG | 0.816 |
| CACAAGAAAAGCACUUGCUGCCAACUGGAUGACUUGAGUUUGUUCCCUGGGACCCAAAUGGAAGGGGAGACUUAUCUCCUGCAAGUUGUCUUUUAACCUGCGCAUGUGUG | 2.29 |

Some of these lines once more (study 3):
| Sequence | E-score |
| --- | --- |
| ATGCGAAT | 0.00264 |
| CGCTATCA | 0.175 |
| CCCATCGC | 0.11 |
| GGAATGGA | -0.0651 |
